Results gathered from unrelated publications.
Numbered parts are unrelated; each lists some results of a single study. Substitutions count along the parent as printed.

Sample 1
Target: RNA binding protein fox-1 homolog 2, RRM domain, GST-SBP tag (RBFOX2, Homo sapiens, UniProt O43251-10, residues 100-194)
Technique: RNA Bind-n-Seq
Molecule type: RNA
Medium: in vitro
Tested at: 365 nM
Setting: natural RNA segment, single round, ends assumed
Baseline: no-protein control
Reading: higher = stronger binding
Target sequence (chain): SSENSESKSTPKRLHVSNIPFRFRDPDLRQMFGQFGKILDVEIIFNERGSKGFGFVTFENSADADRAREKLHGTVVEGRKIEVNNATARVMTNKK
Strand | RBNS enrichment (R)
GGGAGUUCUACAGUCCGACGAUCACUGUAAAGAGUUUGUGAAAGGUUUCAGUCUAACUGGGGUUCCUUAGCUGGAAGCCAGGGCUGGAAGCUACAGGCCUGACCUUCCUGGGUCCCACUAUCUGUUGGCAUUUUGGAAUUCUCGGGUGCCAA | 0.589
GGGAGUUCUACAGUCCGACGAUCAUUCCUGUCGGCGGCCUGGGAUGGUCCGCCACGAGGAGCUUCCAGUGCAUGUUGCCAUGAGGCCUUUCCCCAGUGUGGCCCCAGCCCGACAGGCAUGCACCAGUGCCGCCUGGAAUUCUCGGGUGCCAA | 8.69
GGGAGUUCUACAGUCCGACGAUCCUGAUGCUUUCUGCAUGUCAGCAGUCCAGGAGGAUGCUUUUUGUCUCUCUUUGCCUCCACUUUACAAAAGAUAAUAUGAUAGAGGCAACGUUUAUAACAGUCACAUUUAAUGGAAUUCUCGGGUGCCAA | 5.63
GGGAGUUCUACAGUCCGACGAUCCUGCAGAGUCCUUUUCAUGACCUAGGAGGUCUUAUUCAAAGCCCUCAUUGACAGAGGAGGAAACAGGCCAAGGCAGGACAUGGCUGGACCAUGGUGAUACAGCUCUGUGUUGGAAUUCUCGGGUGCCAA | 0.335
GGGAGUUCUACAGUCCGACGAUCAUGAAAUAAAUAAAUCUUAAAAAAAAAAAUAAGGUGUUAACAUGAGAAGAGGCGCUUCAAGCUCUUCUAAGCCUUGAUGGUGUCUCCCUUUAGGCAAAGAUCUGAAAUAUUGGAAUUCUCGGGUGCCAA | 0.43
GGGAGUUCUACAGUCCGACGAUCCAGGAUGUCUGAUGCAGAGCGGUUCUCCAUCCCUCAGUUCCAGAAAAAAUGGAGUGAUAUUUAAAAAUGCCAUCGAUGGUGGGGAUCUUACUGGGGAAGAGGAAGGACCAUGGAAUUCUCGGGUGCCAA | 0.468
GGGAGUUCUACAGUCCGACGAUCUACUGUUUGAGACAUUAUGGAGAGAUUUAAUUAUUUGUAAUAAAAGAUUUGCUGCAGUCUGAAAACUCCCAGGGGUGCACUGUUGGGUUUUUCUUUAAAAUAGAGUACUUUGGAAUUCUCGGGUGCCAA | 0.748
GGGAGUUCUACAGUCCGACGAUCUGUAGAUCAACUAGCCAACGCCCUCAUUGCUUCAUUGUGUCAAAAAACCGAGAGCUUCACUAAAUGGUAGAUUUUGCUGUCAGAGACCCUACAAUAAGAUUGUUUUAUCUUGGAAUUCUCGGGUGCCAA | 0.646

Sample 2
Target: ABI1, truncated, D143A, DHFR fusion (Arabidopsis thaliana)
Technique: DHFR PCA, deep sequencing
Medium: yeast
Setting: methotrexate growth selection, single substitutions
Added: (+)-ABA 1.4 µM
Baseline: wild-type fitted maximum
Reading: higher = stronger binding
Starting sequence: PYL1, truncated, DHFR fusion (Arabidopsis thaliana); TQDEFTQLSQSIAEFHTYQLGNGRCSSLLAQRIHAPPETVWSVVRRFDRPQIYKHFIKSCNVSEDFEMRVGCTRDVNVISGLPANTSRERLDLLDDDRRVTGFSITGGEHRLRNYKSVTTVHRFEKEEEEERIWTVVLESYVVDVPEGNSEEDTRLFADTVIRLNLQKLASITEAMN
Change | relative binding score [%]
T39F | 0.869
T86K | 28.9
G102D | -6.24
D75E | 77.6
A35L | -14.7
L112V | -6.88
V161K | -0.789
E147C | 31.1
G108H | -17.6
N85D | 45.8
F66C | 30.2
L91Y | 0.402
V62Y | 1.13
D65V | 13
T120E | -3.96
R132V | 56.9
R24T | 58.8
E130H | 60.5

Sample 3
Target: Histone acetyltransferase KAT6A, winged helix 1, GST fusion (KAT6A, Homo sapiens, UniProt Q92794, residues 1-85)
Technique: protein binding microarray
Molecule type: double-stranded DNA, one strand shown
Medium: in vitro
Tested at: not given
Setting: 8-mer, flanks averaged, mean of 2 arrays, mostly near background
Baseline: not given
Reading: higher = stronger binding
Target sequence (chain): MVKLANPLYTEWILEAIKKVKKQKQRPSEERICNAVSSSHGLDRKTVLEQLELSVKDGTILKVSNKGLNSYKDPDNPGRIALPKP
Strand | E-score
ACTAAATG | -0.151
GCAACATA | -0.097
GCGGCTGA | 0.245
CCACTGGA | -0.212
AGTTATGA | -0.109
CGGAAGTA | 0.155
TGCATGCA | -0.112
TATGATCA | -0.129
GTCCCAGA | -0.126
AGGCGCCT | 0.237
ATAGCGAA | -0.171
CACTTAAG | 0.0258
CGAATCAG | -0.244
GAGAGTAC | 0.0328
AACTGGCC | -0.00167
AATAACAC | 0.0692
ATGCGAGC | 0.00464
GAAGGGGC | -0.0773
CAAGTCTA | -0.187
ACTAAAGT | -0.162
CAATCTGA | -0.125
CGCAGGTC | 0.147
GATAACCC | -0.0787
GGTGGAAA | -0.145
CTTGACCA | -0.237

Sample 4
Target: Sal-like protein 4, full length isoform B (SALL4, Homo sapiens, UniProt Q9UJQ4-2, residues 1-616)
Technique: universal PBM
Molecule type: double-stranded DNA, one strand shown
Medium: in vitro
Tested at: not given
Setting: 8-mer, flanks averaged, mean of replicates
Reading: higher = stronger binding
Residues (chain): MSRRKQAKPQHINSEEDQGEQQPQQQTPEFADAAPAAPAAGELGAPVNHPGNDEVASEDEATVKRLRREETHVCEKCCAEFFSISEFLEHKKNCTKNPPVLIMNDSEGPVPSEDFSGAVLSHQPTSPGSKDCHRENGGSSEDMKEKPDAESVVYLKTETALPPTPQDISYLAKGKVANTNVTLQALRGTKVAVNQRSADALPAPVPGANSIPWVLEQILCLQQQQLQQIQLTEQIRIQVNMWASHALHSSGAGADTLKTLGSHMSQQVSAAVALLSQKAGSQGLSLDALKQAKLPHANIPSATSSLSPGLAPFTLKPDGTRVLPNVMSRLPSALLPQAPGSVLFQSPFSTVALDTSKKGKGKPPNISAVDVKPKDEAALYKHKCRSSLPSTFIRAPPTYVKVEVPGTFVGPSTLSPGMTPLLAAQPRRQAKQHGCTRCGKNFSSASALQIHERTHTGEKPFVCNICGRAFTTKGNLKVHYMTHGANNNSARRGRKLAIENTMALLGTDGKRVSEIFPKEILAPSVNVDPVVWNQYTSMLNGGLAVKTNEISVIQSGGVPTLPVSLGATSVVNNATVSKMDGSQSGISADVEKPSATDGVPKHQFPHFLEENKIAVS
Strand | E-score
ATACTCGG | 0.0532
ACAAGGAT | 0.213
CGAAAGCG | -0.206
TAGATTGA | 0.126
CTGGCAAG | -0.0956
ACACTCGG | -0.115
CGAGAGCG | -0.274
GGGATCCA | -0.161
GTTTGTAA | 0.135
AAATGTAC | 0.222
AGCACCAT | -0.0898
CGATCGGA | -0.144
ACTAAACG | 0.0705
ACTTGTGA | 0.116
GCACCTCA | -0.16
ACGAACCA | -0.0491
GACTTCGC | -0.157
GAAGCAAA | 0.0898
ACAGGGGT | -0.114
ACGAATGG | -0.0444
TCACGCAA | 0.147
AACGTGGA | -0.039
CTTTTACA | 0.208
AACATTTC | 0.198
AAGCACTG | 0.058

Sample 5
Target: CCNF, cyclin fold, Cln2 fusion (human)
Technique: yeast growth competition, sequencing
Medium: yeast
Setting: strong parent motif
Baseline: not given
Reading: higher = stronger binding
Starting sequence: SCAPER docking peptide (human); SNARRSLNFGGST
Change | normalised enrichment score
SNARRSLNFGQST [G11Q] | 6.84
SKARRSLNFGGST [N2K] | 6.72
SIARRSLNFGGST [N2I] | 6.06
SNARISLNFGGST [R5I] | 1.02
SNAFRSLNFGGST [R4F] | 2.85
SNQRRSLNFGGST [A3Q] | 0.938
SNARRSLNFGGLT [S12L] | 7.97
SNARRSLNFGIST [G11I] | 6.61
WNARRSLNFGGST [S1W] | 8.02
SNARRSLKFGGST [N8K] | 7.93
SNARRSLNFGGTT [S12T] | 6.99
SNARRSLNFGGDT [S12D] | 7.61
SNARRSLNFGGSY [T13Y] | 7.31
SNAERSLNFGGST [R4E] | 0.177
SNARRSLSFGGST [N8S] | 6.1
SNARRWLNFGGST [S6W] | 7.39
